Results pooled from the literature.
Each numbered part is a random draw from the data of one study; scales do not carry over between parts. Substitutions count along the parent as printed.
Chain of UniProt Q8N2K1 (whole entry, looked up): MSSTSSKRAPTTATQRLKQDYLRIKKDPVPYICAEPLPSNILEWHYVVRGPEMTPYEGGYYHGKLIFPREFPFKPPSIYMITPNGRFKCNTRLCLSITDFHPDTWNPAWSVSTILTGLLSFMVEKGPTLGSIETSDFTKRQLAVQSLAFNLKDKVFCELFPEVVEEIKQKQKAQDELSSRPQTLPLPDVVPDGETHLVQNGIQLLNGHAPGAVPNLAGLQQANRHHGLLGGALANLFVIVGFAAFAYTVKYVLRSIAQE
Chain of UniProt P51668 (whole entry, looked up): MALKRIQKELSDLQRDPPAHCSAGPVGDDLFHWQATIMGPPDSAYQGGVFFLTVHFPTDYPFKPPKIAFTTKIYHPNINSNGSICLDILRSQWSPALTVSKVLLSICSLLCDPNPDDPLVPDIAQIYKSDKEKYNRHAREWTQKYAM
Chain of UniProt Q712K3 (whole entry, looked up): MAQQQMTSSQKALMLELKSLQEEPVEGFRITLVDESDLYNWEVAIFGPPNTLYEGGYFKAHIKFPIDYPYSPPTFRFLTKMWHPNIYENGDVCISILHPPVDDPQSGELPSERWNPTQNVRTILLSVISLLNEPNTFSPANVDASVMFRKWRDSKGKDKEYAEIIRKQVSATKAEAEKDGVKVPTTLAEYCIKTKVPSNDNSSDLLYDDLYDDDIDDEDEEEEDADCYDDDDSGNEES
Chain of UniProt Q9H832 (whole entry, looked up): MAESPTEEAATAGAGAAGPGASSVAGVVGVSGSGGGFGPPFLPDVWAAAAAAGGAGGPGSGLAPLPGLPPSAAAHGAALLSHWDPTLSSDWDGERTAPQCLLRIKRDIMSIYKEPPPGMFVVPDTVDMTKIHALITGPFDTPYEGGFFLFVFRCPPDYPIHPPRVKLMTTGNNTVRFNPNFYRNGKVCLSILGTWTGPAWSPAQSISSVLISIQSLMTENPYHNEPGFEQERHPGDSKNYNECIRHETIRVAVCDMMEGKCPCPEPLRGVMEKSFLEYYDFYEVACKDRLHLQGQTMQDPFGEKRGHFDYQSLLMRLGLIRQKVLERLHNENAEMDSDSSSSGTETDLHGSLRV
Chain of UniProt P61081 (whole entry, looked up): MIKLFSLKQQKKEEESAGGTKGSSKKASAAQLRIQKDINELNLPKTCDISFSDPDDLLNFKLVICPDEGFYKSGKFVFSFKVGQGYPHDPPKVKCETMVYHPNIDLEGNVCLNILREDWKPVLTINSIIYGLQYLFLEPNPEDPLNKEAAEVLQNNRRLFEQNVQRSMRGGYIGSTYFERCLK

Block 1
Target: Prothrombin, mature alpha-thrombin (F2, Homo sapiens, UniProt P00734)
Technique: aptamer microarray, sandwich
Form: DNA with 2'F-ANA
Medium: in vitro
Concentration: 200 nM
Notes: whole 15-mer aptamer, many near background
Added: Cy3 exosite-II aptamer, 400 nM
Reading: higher = stronger binding
Measurement: mean fluorescence intensity
Sequence: GGTTGGTGTGGTTGG
Modification = 2'F-ANA at 1 2 4 7 8 9 10 11 12 15; result = 73 a.u.
Modification = 2'F-ANA at 4 6 8 11 13 14; result = 80.9 a.u.
Modification = 2'F-ANA at 4 5 11; result = 57.6 a.u.
Modification = 2'F-ANA at 3 5 7 11 12 13 14; result = 69.6 a.u.
Modification = 2'F-ANA at 2 3 5 7 8 9 10 11; result = 59.1 a.u.
Modification = 2'F-ANA at 1 2 3 4 6 10 14; result = 45.9 a.u.
Modification = 2'F-ANA at 1 2 3 6 8 9 10 12 13 14; result = 54.4 a.u.
Modification = 2'F-ANA at 3 5 11; result = 121 a.u.
Modification = 2'F-ANA at 4 5 7 10 11 12 14 15; result = 50.5 a.u.
Modification = 2'F-ANA at 3 9 10 11 12 14; result = 440 a.u.
Modification = 2'F-ANA at 1 2 3 5 6 8 9 11 13 14; result = 45.5 a.u.
Modification = 2'F-ANA at 1 5 6 12 13; result = 69.8 a.u.
Modification = 2'F-ANA at 2 5 9 10 11 14 15; result = 62 a.u.
Modification = 2'F-ANA at 2 7 8 9 13 14 15; result = 152 a.u.
Modification = 2'F-ANA at 5 7 15; result = 77.9 a.u.
Modification = 2'F-ANA at 1 2 6 10 14; result = 48.3 a.u.
Modification = 2'F-ANA at 1 2 3 6 7 9 10 12 13 14 15; result = 54.6 a.u.
Modification = 2'F-ANA at 1 10 11 12 13 15; result = 70.3 a.u.
Modification = 2'F-ANA at 1 3 5 8 10 11 14; result = 111 a.u.
Modification = 2'F-ANA at 1 3 4 6 7 9 10 13; result = 56.9 a.u.

Block 2
Target: ABI1, truncated, D143A, DHFR fusion (Arabidopsis thaliana)
Technique: DHFR PCA, deep sequencing
Medium: yeast
Notes: methotrexate growth selection, single substitutions
Added: (+)-ABA 0 µM
Relative to: wild-type fitted maximum
Reading: higher = stronger binding
Measurement: relative binding score
Parent: PYL1, truncated, DHFR fusion (Arabidopsis thaliana); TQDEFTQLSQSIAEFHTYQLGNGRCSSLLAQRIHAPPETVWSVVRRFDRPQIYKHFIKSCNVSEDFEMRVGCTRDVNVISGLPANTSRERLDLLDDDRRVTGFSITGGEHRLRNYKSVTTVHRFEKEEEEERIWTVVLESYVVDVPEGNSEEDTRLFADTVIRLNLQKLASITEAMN; partner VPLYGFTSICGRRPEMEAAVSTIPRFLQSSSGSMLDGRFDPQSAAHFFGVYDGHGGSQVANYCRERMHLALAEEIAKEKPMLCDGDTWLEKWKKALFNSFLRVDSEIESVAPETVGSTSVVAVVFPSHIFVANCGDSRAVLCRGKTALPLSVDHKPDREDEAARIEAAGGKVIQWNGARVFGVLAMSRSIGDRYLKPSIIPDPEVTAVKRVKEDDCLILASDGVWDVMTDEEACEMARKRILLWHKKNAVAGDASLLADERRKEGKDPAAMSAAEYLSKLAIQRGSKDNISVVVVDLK
Substitution = D96H; result = -4.7%
Substitution = Q167V; result = 5.4%
Substitution = D153A; result = -1.48%
Substitution = E152I; result = -4.04%
Substitution = H110R; result = 19.4%
Substitution = L29V; result = 29.5%
Substitution = Y141F; result = -5.16%
Substitution = A158G; result = -0.326%
Substitution = D97M; result = 6.74%
Substitution = I57Y; result = -9.37%

Block 3
Target: CCNB2, cyclin fold, Cln2 fusion (human)
Technique: yeast growth competition, sequencing
Medium: yeast
Notes: weak parent motif
Relative to: not given
Reading: higher = stronger binding
Measurement: normalised enrichment score
Parent: RB1 docking peptide (human); PKPLKKLRFDIEG; partner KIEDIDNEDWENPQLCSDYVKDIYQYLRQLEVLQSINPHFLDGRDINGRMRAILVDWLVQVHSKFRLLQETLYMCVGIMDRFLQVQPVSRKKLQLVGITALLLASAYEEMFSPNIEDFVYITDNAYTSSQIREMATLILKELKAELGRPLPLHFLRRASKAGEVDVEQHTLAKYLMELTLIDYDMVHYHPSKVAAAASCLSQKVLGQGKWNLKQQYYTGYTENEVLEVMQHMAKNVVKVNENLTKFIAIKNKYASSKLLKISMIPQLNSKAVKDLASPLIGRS
Substitution = K2H; result = 0.186
Substitution = K6W; result = -0.0643
Substitution = K6D; result = 0.322
Substitution = G13E; result = 0.159
Substitution = K6T; result = -0.0505
Substitution = L4I; result = 1
Substitution = L7S; result = 0.508
Substitution = K2F; result = 0.119
Substitution = D10I; result = -0.305
Substitution = L7F; result = -0.114
Substitution = D10R; result = 1.02
Substitution = R8M; result = 0.299
Substitution = K5F; result = -0.37
Substitution = G13F; result = 0.481
Substitution = P1G; result = 0.368
Substitution = L7M; result = 0.674
Substitution = K2G; result = 0.328
Substitution = P1E; result = 0.332
Substitution = K6M; result = 0.283

Block 4
Target: RNA binding protein fox-1 homolog 2, RRM domain, GST-SBP tag (RBFOX2, Homo sapiens, UniProt O43251-10, residues 100-194)
Technique: RNA Bind-n-Seq
Form: RNA
Medium: in vitro
Concentration: 365 nM
Notes: natural RNA segment, single round, ends assumed
Relative to: no-protein control
Reading: higher = stronger binding
Measurement: RBNS enrichment (R)
All sequences stand within: GGGAGUUCUACAGUCCGACGAUC … UGGAAUUCUCGGGUGCCAA
Target sequence (chain): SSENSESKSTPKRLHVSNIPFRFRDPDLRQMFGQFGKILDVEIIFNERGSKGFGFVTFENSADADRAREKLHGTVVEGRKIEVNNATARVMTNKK
Sequence = GUUUCGUUACAUUUAGAUGAAAGUUAAACUUUACUGAAUUUCAGUACAUUAGUUUUUACACUAAAACUUUACAAGAUAAAAUUGGACUUCAUUUAGUAUCUUUUUAACAG; result = 0.404
Sequence = AGACCUGGUACCGGGUCUGUGGUAGAGAGUAAAGACCAAGGGAGUAGAGAGAUCCCAGCCCUGGGAGGAGAAGGAAGUUGGGUCAGGCCUCGGUACAAAGGGAAAACACU; result = 0.809
Sequence = GCCUAUAAGGCAGUGUUGGUCCCCUUCUAAUAUUGGCCUCAUAAAGGGGUUCCACUGUACUUUCCGCAUAUUACUGUGUUGUUGUUUUCCUUUGUGGAUAUAUAAGCAAA; result = 0.508
Sequence = UAUUGCAGGUAUCACAGCCUAAAGAAAUUAUCUUUUUGCAAAAGAAAUAUUAAAUGAUUUAGCAGUCUCCACGUGUGUUAAUGUUUCAAACGUGUAUCAUAAUGUGUAUA; result = 0.415
Sequence = UAAAUAAGUGCAUUGAGAAGAACAUGGAGAGGAUGCUGUCCUCUGCAACAGAGACAGGCCCGUGGCGGGGCGCCUCUGGUCCUGGUGCUCAUCACGGCUGGCUUCUCUGA; result = 0.746
Sequence = UCACUGGAGUGGCGUCUGCAGCAGCUGCUGCCCCAGCACCCGCUCAGCCUGUCCUGGCUGCUCACCUCCCCGCAGGGCACCGGGCCUUUCCUGCCCUCUGUGGUCAUCUG; result = 0.199
Sequence = AUCCUGUUAUACUGAGAUCCUAUUGCAUUUUCACCAAAAAUAUUGAAACUUACCAGAAUUGAUUUUGAAGAGGUUUAAUACUGUGUAUCUCCCAGACUAGCAAAAUGAUU; result = 0.598
Sequence = CUCUUCUUGCAGCUGCCUGGCCAGGAUCUAUGGCUUAGGAUCUAUGGCCACCCCUGCAGGGGAGCUACAGUGAGGCCUGGGGCUGGAUUCCACCCACAGUCCCUUCCCUG; result = 0.38
Sequence = AGAAGUUAAAUUUGAAAGUGAAUGUGUUCAAAUGAAAGGCUUGACAAUUGCAUCUGUUACUAGUUUUGUAGGCUUUAAUCCUAGUGUGCGUUAAAUAUUGGGCAAAUUGC; result = 9.99
Sequence = CGGUUUUUGUAUAUAAAAUUCAUGUUUCCAAUCUCUCUCUCCCUGAUCGGUGACAGUCACUAGCUUAUCUUGAACAGAUAUUUAAUUUUGCUAACACUCAGCUCUGCCCU; result = 0.53
Sequence = AGCCUCCGUCAACCGUCCUCUAAUCCAGAGUUUACUCCACCUGCCGCACUUAGCAGGGGGACGGGACCGAAGCUCCCUCAAUCCUUGUCUGGUACUAGAUUUGCUCCUGU; result = 0.389
Sequence = CAUGGGCACCUUGAUCAUGUCUUAACCUUCCCUUAACCUUGGGGCUCCCAAGCCAGAGUCAAGGUCUGACGCCACCUCAAGGUGACAGCUCAUCUCCAGCACAGCACAGG; result = 0.427

Block 5
Molecule: B1 (RNF133 RING domain)
Technique: yeast two-hybrid
Medium: yeast
Notes: mostly zero background
Relative to: not given
Reading: higher = stronger interaction
Measurement: lacZ reporter activity
B1: RNF133 RING domain (UniProt Q8WVZ7); chain DEEINPNGDSCVICFERYKPNDIVRILTCKHFFHKNCIDPWILPHGTCPICKCDILKVLGIQ
target = UBE2R2 UBC core domain (UniProt Q712K3); result = 0
target = UBE2M UBC core domain (UniProt P61081); result = 0
target = UBE2J2 UBC core domain (UniProt Q8N2K1); result = 0
target = UBE2D1 UBC core domain (UniProt P51668); result = 5780
target = UBE2Z UBC core domain (UniProt Q9H832); result = 0

Block 6
Target: Histone acetyltransferase KAT6A, both winged helices, GST fusion (KAT6A, Homo sapiens, UniProt Q92794, residues 1-181)
Technique: protein binding microarray
Form: double-stranded DNA, one strand shown
Medium: in vitro
Concentration: not given
Notes: 8-mer, flanks averaged, mean of 2 arrays, mostly near background
Relative to: not given
Reading: higher = stronger binding
Measurement: E-score
Construct (chain): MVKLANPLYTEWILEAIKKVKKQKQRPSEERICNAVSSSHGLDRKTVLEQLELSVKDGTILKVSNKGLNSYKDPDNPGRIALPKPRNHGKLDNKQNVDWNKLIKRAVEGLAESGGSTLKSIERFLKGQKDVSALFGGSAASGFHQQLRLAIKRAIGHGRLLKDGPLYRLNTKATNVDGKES
Sequence = TCCTCGAA; result = -0.0817
Sequence = ACCTTAGA; result = -0.0458
Sequence = ACCGGGAG; result = 0.197
Sequence = ACTAATAT; result = -0.145
Sequence = ATGAATGG; result = -0.219
Sequence = CCAGTGAA; result = -0.0921
Sequence = AGAACACA; result = -0.237
Sequence = TCTCAAGA; result = -0.159
Sequence = ACCTTGAT; result = -0.097
Sequence = CTAATTGC; result = 0.034
Sequence = CCGGCTGA; result = 0.13
Sequence = AGGACGTG; result = -0.145
Sequence = CGCTGGGC; result = 0.0698
Sequence = CTATGCTC; result = -0.132
Sequence = TGCTCCAA; result = -0.282
Sequence = GGCACGTA; result = 0.0725
Sequence = CGTAATAA; result = 0.0656
Sequence = CAAACCCA; result = -0.08
Sequence = CTAATATC; result = -0.0772
Sequence = AGGTAAGA; result = -0.111
Sequence = CCGGTACG; result = 0.195
Sequence = CCACCTCG; result = -0.138
Sequence = GCTAAGGA; result = -0.0307
Sequence = AGCAACCG; result = -0.00369
Sequence = GATCCGAC; result = 0.16

Excerpt of the above (block 4):
Sequence = UAAAUAAGUGCAUUGAGAAGAACAUGGAGAGGAUGCUGUCCUCUGCAACAGAGACAGGCCCGUGGCGGGGCGCCUCUGGUCCUGGUGCUCAUCACGGCUGGCUUCUCUGA; result = 0.746
Sequence = UCACUGGAGUGGCGUCUGCAGCAGCUGCUGCCCCAGCACCCGCUCAGCCUGUCCUGGCUGCUCACCUCCCCGCAGGGCACCGGGCCUUUCCUGCCCUCUGUGGUCAUCUG; result = 0.199
Sequence = AUCCUGUUAUACUGAGAUCCUAUUGCAUUUUCACCAAAAAUAUUGAAACUUACCAGAAUUGAUUUUGAAGAGGUUUAAUACUGUGUAUCUCCCAGACUAGCAAAAUGAUU; result = 0.598
Sequence = CUCUUCUUGCAGCUGCCUGGCCAGGAUCUAUGGCUUAGGAUCUAUGGCCACCCCUGCAGGGGAGCUACAGUGAGGCCUGGGGCUGGAUUCCACCCACAGUCCCUUCCCUG; result = 0.38
Sequence = AGAAGUUAAAUUUGAAAGUGAAUGUGUUCAAAUGAAAGGCUUGACAAUUGCAUCUGUUACUAGUUUUGUAGGCUUUAAUCCUAGUGUGCGUUAAAUAUUGGGCAAAUUGC; result = 9.99
Sequence = CGGUUUUUGUAUAUAAAAUUCAUGUUUCCAAUCUCUCUCUCCCUGAUCGGUGACAGUCACUAGCUUAUCUUGAACAGAUAUUUAAUUUUGCUAACACUCAGCUCUGCCCU; result = 0.53
Sequence = AGCCUCCGUCAACCGUCCUCUAAUCCAGAGUUUACUCCACCUGCCGCACUUAGCAGGGGGACGGGACCGAAGCUCCCUCAAUCCUUGUCUGGUACUAGAUUUGCUCCUGU; result = 0.389
